# Results from different studies.
# Compare with care: the assays were run in different laboratories. Numbers after ± are the reported error.
# Cell line: MV4-11
Structure (SMILES),effect on,method,time,with,direction,quantity,result
COC(=O)C[C@](O)(CCCC(C)(C)O)C(=O)O[C@@H]1C(OC)=C[C@]23CCCN2CCc2cc4c(cc2[C@H]13)OCO4,,,72 h,cytotoxic drug,below 1 means synergy,combination index,0.67 ± 0.06
COc1ccc(C[C@H]2COC(=O)[C@@H]2Cc2ccc(OCC(=O)Nc3ccc(C(=O)Nc4ccccc4N)cc3)c(OC)c2)cc1OC,cell growth or viability,CCK-8,48 h,,,IC50,0.75 µM
C[C@@H]1CN(c2ccc(-c3cc(C(=O)NCCOCCOCCOCCOCCOCCOCCNC(=O)/C=C/c4[nH]cc(C(=O)N[C@@H](CC(N)=O)c5ccc(F)c(Cl)c5)c4-c4ccc(Cl)cc4F)ccc3F)cc2NC(=O)c2ccc(F)cc2C(F)(F)F)C[C@H](C)N1C,cell growth or viability,ATP luminescence,5 days,,,EC50,1.46 µM
Nc1cc(F)ccc1NC(=O)c1ccc(CNC(=O)/C=C/c2cccnc2)cc1,cell growth or viability,CCK-8,48 h,,,IC50,2 µM
COc1ccc2nccc(N3CCc4c(cc(Cn5ccnc5)cc4-c4cn(C)nc4C(F)(F)F)C3=O)c2c1,cell growth or viability,ATP luminescence,5 days,,,GI50,0.045 µM
CCN(c1cc(-c2ccc(CN3CCN(CCC(=O)NCCCCCCCCCCC(=O)N[C@H](C(=O)N4C[C@H](O)C[C@H]4C(=O)NCc4ccc(-c5scnc5C)cc4)C(C)(C)C)CC3)cc2)cc(C(=O)NCc2c(C)cc(C)[nH]c2=O)c1C)C1CCOCC1,cell growth,CCK-8,5 days,,,IC50,0.19 µM
C[C@@H]1CN(c2ccc(-c3cc(C(=O)NCCOCCOCCOCCOCCNC(=O)/C=C/c4[nH]cc(C(=O)N[C@@H](CC(N)=O)c5ccc(F)c(Cl)c5)c4-c4ccc(Cl)cc4F)ccc3F)cc2NC(=O)c2c[nH]c(=O)cc2C(F)(F)F)C[C@H](C)N1C,cell growth or viability,ATP luminescence,5 days,,,EC50,3.29 µM
CCCNNC(=O)c1ccc(CNC(=O)c2ccccc2)cc1,cell growth or viability,resazurin,48 h,,,EC50,0.038 to 0.287 µM
CC[C@@]1(O)C[C@H](O[C@H]2C[C@H](N(C)C)[C@H](O[C@H]3C[C@H](O)[C@H](O[C@H]4CCC(=O)[C@H](C)O4)[C@H](C)O3)[C@H](C)O2)c2c(cc3c(c2O)C(=O)c2c(O)cccc2C3=O)[C@H]1C(=O)OC,,,72 h,cytotoxic drug,below 1 means synergy,combination index,0.91 ± 0.06
CCn1cc(-c2cc(Cn3ccnc3)cc3c2CCN([C@H](c2cc(C)ccn2)C2CC2)C3=O)c(C(F)(F)F)n1,cell growth or viability,ATP luminescence,5 days,,,GI50,0.013 µM
COc1ccc(C[C@H]2COC(=O)[C@@H]2Cc2ccc(OCCCCC(=O)NO)c(OC)c2)cc1OC,cell growth or viability,CCK-8,48 h,,,IC50,> 5 µM
COc1cc(OC)c2nccc(N3CCc4c(cc(Cn5ccnc5)cc4-c4cn(C)nc4C(F)(F)F)C3=O)c2c1,cell growth or viability,ATP luminescence,5 days,,,GI50,0.018 µM

# A few entries again:
Structure (SMILES),effect on,method,time,with,direction,quantity,result
COc1ccc2nccc(N3CCc4c(cc(Cn5ccnc5)cc4-c4cn(C)nc4C(F)(F)F)C3=O)c2c1,cell growth or viability,ATP luminescence,5 days,,,GI50,0.045 µM
CCN(c1cc(-c2ccc(CN3CCN(CCC(=O)NCCCCCCCCCCC(=O)N[C@H](C(=O)N4C[C@H](O)C[C@H]4C(=O)NCc4ccc(-c5scnc5C)cc4)C(C)(C)C)CC3)cc2)cc(C(=O)NCc2c(C)cc(C)[nH]c2=O)c1C)C1CCOCC1,cell growth,CCK-8,5 days,,,IC50,0.19 µM
